Assay results of several laboratories.
Protocols differ between the studies behind these lines. Numbers after ± are the reported error.
Chain of UniProt P00761 (whole entry, looked up): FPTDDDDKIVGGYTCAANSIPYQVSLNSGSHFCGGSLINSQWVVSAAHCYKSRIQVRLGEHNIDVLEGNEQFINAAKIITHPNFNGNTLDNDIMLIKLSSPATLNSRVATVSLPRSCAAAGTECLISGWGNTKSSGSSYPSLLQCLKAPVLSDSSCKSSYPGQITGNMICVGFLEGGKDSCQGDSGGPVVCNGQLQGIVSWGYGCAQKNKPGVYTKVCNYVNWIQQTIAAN

| SMILES | target or system | assay | system | conditions | how to read | quantity | result |
| --- | --- | --- | --- | --- | --- | --- | --- |
| CC1(F)CN(C(=O)Cn2c(=O)c(C(=O)NCc3ccc(Cl)cc3)cc3nc(N4CCOC4=O)cnc32)C1 | human cytomegalovirus | – | MRC-5, AD169-GFP | – | reference: CC50 over EC50 | selectivity ratio | 112 |
| CCCCCCCCCCCCCCCc1cccc(O)c1C(=O)O | OCI-Ly1 | – | – | 0.5 µM, 120 h | – | viability | 152% |
| C=C(c1ccc(C(=O)O)cc1)c1cc2c(cc1C)C(C)(C)CCC2(C)C | COS-7 | – | – | 100 µM, 24 h, 0.1% DMSO, unit not given | reference: control | confluence | 0.34 ± 0.51 |
| Cc1cc(O)c2c(c1)C(=O)c1cccc(O)c1C2=O | HepaRG co-cultured with HK-2 | MTT | – | 16.67 µM, 48 h | reference: untreated control | cell viability | 91.3 ± 8.11% |
| CCC(=O)NS(=O)(=O)c1ccc(-c2c(-c3ccccc3)noc2C)cc1 | COS-7 | WST-8 | – | 100 µM, 24 h, 0.1% DMSO, unit not given | reference: control | metabolic activity | 0.97 ± 0.02 |
| O=C1c2cccc(O)c2C(=O)c2c(O)cc(CO)cc21 | HepaRG co-cultured with HK-2 | MTT | – | 16.67 µM, 24 h | reference: untreated control | cell viability | 88.9 ± 6.23% |
| CC[C@H](CO)N(CCN(N=O)[C@H](CC)CO)N=O | Salmonella typhimurium | – | TA1535, water | concentration not given, plate incorporation, no S9 | – | lowest mutagenic concentration | 5000 µg/plate |
| CC[C@H](C)[C@H](NC(=O)[C@H](CO)NC(=O)[C@H](Cc1ccc(O)cc1)NC(=O)[C@H](CC(=O)O)NC(=O)[C@H](CO)NC(=O)[C@@H](NC(=O)[C@H](Cc1ccccc1)NC(=O)[C@@H](NC(=O)CNC(=O)[C@H](CCC(=O)O)NC(=O)[C@H](C)NC(=O)[C@H](Cc1ccc(O)cc1)NCC(F)(F)F)[C@@H](C)O)[C@@H](C)CC)C(=O)N[C@@H](C)C(=O)N[C@@H](CCSC)C(=O)N[C@@H](CC(=O)O)C(=O)N[C@@H](CCCCN)C(=O)N[C@H](C(=O)N[C@@H](Cc1c[nH]cn1)C(=O)N[C@@H](CCC(N)=O)C(=O)N[C@@H](CCCCNC(=O)COCCOCCNC(=O)COCCOCCNC(=O)CC[C@H](NC(=O)CCCCCCCCCCCCCCCCC(=O)O)C(=O)O)C(=O)N[C@@H](CC(=O)O)C(=O)N[C@@H](Cc1ccccc1)C(=O)N[C@H](C(=O)N[C@@H](CC(N)=O)C(=O)N[C@@H](Cc1c[nH]c2ccccc12)C(=O)N[C@@H](CC(C)C)C(=O)N[C@@H](CC(C)C)C(=O)N[C@@H](C)C(=O)N[C@@H](CCC(N)=O)C(=O)N[C@@H](CCCCN)C(=O)NCC(=O)N[C@@H](CCCCN)C(=O)N[C@@H](CCCCN)C(=O)N[C@@H](CC(N)=O)C(=O)N[C@@H](CC(=O)O)C(=O)N[C@@H](Cc1c[nH]c2ccccc12)C(=O)N[C@@H](CCCCN)C(=O)N[C@@H](Cc1c[nH]cn1)C(=O)N[C@@H](CC(N)=O)C(=O)N[C@H](C(=O)N[C@H](C(=O)N[C@@H](CCC(N)=O)C(=O)O)[C@@H](C)O)[C@@H](C)CC)C(C)C)[C@@H](C)CC | Trypsin (Sus scrofa, UniProt P00761) | LC-MS, item: fragment 1-33 | – | 18 h, pH 8.0, 37 °C, added: trypsin 2.5 mg/mL | – | fragment formed | 9% |
| CC1(F)CN(C(=O)Cn2c(=O)c(C(=O)NCc3ccc(Cl)cc3)cc3nc(N4CCN(CC(=O)O)C4=O)cnc32)C1 | human cytomegalovirus | – | MRC-5, AD169-GFP | – | reference: CC50 over EC50 | selectivity ratio | > 31.4 |
| CC(C)C[C@H](NC(=O)C[C@H](O)[C@H](CC(C)C)NC(=O)[C@H](Cc1c[nH]cn1)NC(=O)CNC(=O)[C@@H](NC(=O)[C@H](C)NC(=O)[C@H](Cc1c[nH]c2ccccc12)NC(=O)[C@H](CCC(N)=O)NC(=O)[C@@H](Cc1ccccc1)NC(=O)COCCOCCNC(=O)CCC(C(=O)O)N1CCN(CC(=O)O)CCN(CC(=O)O)CC1)C(C)C)C(N)=O (stereo partly drawn) [lutetium-177 labelled] | – | – | female BALB/c nu/nu mice, kidneys | intravenous, 50 pmol, 1 h | – | tissue uptake | 5.4 ± 0.3 %ID/g |
| CCCCCOc1ccc(/C=C\c2cccc(O)c2C(=O)O)cc1 | OCI-Ly1 | – | – | 0.1 µM, 120 h | – | viability | 193% |
| CC[C@H]1[C@@H](O)[C@@H]2[C@H](CC[C@]3(C)[C@@H]([C@H](C)CCNC(=O)NS(=O)(=O)c4ccc(C(C)(C)C)cc4)CC[C@@H]23)[C@@]2(C)CC[C@@H](O)C[C@@H]12 | ATP-dependent translocase ABCB1 (ABCB1, Homo sapiens, UniProt P08183) | – | human, plasma | dose not given, geometric mean, added: quinidine | – | Vd/F | 218 L |
| Cc1onc(-c2ccccc2)c1-c1ccc(S(N)(=O)=O)cc1 | COS-7 | – | – | 100 µM, 24 h, 0.1% DMSO, unit not given | reference: control | confluence | 0.75 ± 0.05 |
| Cc1cc(N)c2c(OCC(C)(C)C(=O)NC(C)C)cccc2n1 | Salmonella typhimurium | reverse mutation, plate incorporation | TA98 | 50 µg/plate, without S9 | – | mean revertant colonies | 26 colonies/plate |
| COc1c(O)cc2c(c1O)C(=O)c1c(cc(C)c(O)c1OC)C2=O | HepaRG co-cultured with HK-2 | MTT | – | 266.67 µM, 24 h | reference: untreated control | cell viability | 58.2 ± 8.21% |
| Cc1cc(C(=O)NC(C)(C)COc2cccc3c2C(N)=NS(=O)(=O)N3)cc(C)n1 | human peripheral blood lymphocytes | CBPI, preliminary test | – | 6 µg/mL, 24 h | reference: vehicle control | cytotoxicity | 11% |
| CCc1cc(C(=O)NC)c2nccc(N3CCc4c(cc(Cn5ccnc5)cc4-c4cn(C)nc4C(F)(F)F)C3=O)c2c1 | – | – | Sprague Dawley rat | oral, 50 mg/kg once daily, 7 days | reference: vehicle | lung weight change | 9.34% |
| CC(=O)c1c(C)cc2cc(O)cc(O[C@@H]3O[C@H](CO)[C@@H](O)[C@H](O)[C@H]3O)c2c1O | HepaRG co-cultured with HK-2 | MTT | – | 16.67 µM, 24 h | reference: untreated control | cell viability | 99.1 ± 14% |
| CCCCCCCCC(=O)c1cc(O)c(O)c(O)c1 | COS-7 | – | – | 10 µM, 24 h, 0.1% DMSO, unit not given | reference: vehicle control | necrotic cells | 1.14 ± 0.12 |
| COc1c(O)c(C)cc2c1C(=O)c1c(cc(O)c(O)c1O)C2=O | HepaRG co-cultured with HK-2 | MTT | – | 33.33 µM, 48 h | reference: untreated control | cell viability | 89.2 ± 9.48% |
| CCN(CC)Cc1cc(Nc2ccnc3cc(Cl)ccc23)ccc1O | COS-7 | – | – | 30 µM, 24 h, 0.1% DMSO, unit not given | reference: vehicle control | confluence | 0.79 ± 0.2 |

Some of these lines once more:
| SMILES | target or system | assay | system | conditions | how to read | quantity | result |
| --- | --- | --- | --- | --- | --- | --- | --- |
| CC1(F)CN(C(=O)Cn2c(=O)c(C(=O)NCc3ccc(Cl)cc3)cc3nc(N4CCN(CC(=O)O)C4=O)cnc32)C1 | human cytomegalovirus | – | MRC-5, AD169-GFP | – | reference: CC50 over EC50 | selectivity ratio | > 31.4 |
| CC(C)C[C@H](NC(=O)C[C@H](O)[C@H](CC(C)C)NC(=O)[C@H](Cc1c[nH]cn1)NC(=O)CNC(=O)[C@@H](NC(=O)[C@H](C)NC(=O)[C@H](Cc1c[nH]c2ccccc12)NC(=O)[C@H](CCC(N)=O)NC(=O)[C@@H](Cc1ccccc1)NC(=O)COCCOCCNC(=O)CCC(C(=O)O)N1CCN(CC(=O)O)CCN(CC(=O)O)CC1)C(C)C)C(N)=O (stereo partly drawn) [lutetium-177 labelled] | – | – | female BALB/c nu/nu mice, kidneys | intravenous, 50 pmol, 1 h | – | tissue uptake | 5.4 ± 0.3 %ID/g |
| CCCCCOc1ccc(/C=C\c2cccc(O)c2C(=O)O)cc1 | OCI-Ly1 | – | – | 0.1 µM, 120 h | – | viability | 193% |
